Results of several laboratories.
Compare with care: the assays were run in different laboratories.
MAPK9: Mitogen-activated protein kinase 9 (MAPK9, Homo sapiens, UniProt P45984)
Sequence of UniProt P45984 (whole entry, looked up): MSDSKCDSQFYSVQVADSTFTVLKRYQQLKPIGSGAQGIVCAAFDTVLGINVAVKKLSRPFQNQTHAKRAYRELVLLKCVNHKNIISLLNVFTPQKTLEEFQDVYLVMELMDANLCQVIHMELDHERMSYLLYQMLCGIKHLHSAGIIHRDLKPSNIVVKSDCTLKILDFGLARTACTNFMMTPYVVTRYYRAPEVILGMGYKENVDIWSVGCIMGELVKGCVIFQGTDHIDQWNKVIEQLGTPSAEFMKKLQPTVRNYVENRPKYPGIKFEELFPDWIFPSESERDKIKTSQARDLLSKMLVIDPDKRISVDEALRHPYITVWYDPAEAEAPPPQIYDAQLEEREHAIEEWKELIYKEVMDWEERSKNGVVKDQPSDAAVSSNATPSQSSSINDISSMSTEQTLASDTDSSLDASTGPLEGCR

C1=C/COCc2cc(ccc2OCCN2CCCC2)Nc2nccc(n2)-c2cccc(c2)COC/1 — binding (MAPK9; concentration not given, kinase construct JNK2; reference: control): 47%
Cc1cc(NC(=O)c2cccc(NC(=O)/C=C/CN(C)C)c2)ccc1Nc1nccc(-c2cccnc2)n1 — remaining activity (MAPK9; enzyme activity, inhibitor; 44.44 µM, unit not given; reference: vehicle): 0.00665
C[C@@H](c1ccc(-n2cnc3c(N)ncnc32)cc1)N1CCc2nn(C)c(Cc3ccccc3)c2C1=O — remaining binding (MAPK9; KINOMEscan; 0.1 µM; reference: DMSO control): 40%
CCCOc1ccc(OC)c(F)c1C(=O)c1ccc(C(=O)N[C@@H]2CNC[C@H]2NC(=O)c2ccc3[nH]ncc3c2)cc1 — remaining activity (MAPK9; enzyme activity; 10 µM): 92%
CC[C@@H]1[C@H](F)C(=O)N[C@@H]1COc1nccc2cc(C(N)=O)c(OC)cc12 — inhibition (MAPK9; ATP probe binding, KiNativ profiling, refers to: Lys1 probe site; THP-1 cell lysate; 0.2 mM): -0.3%
CN1CC(Oc2cnc(C#N)cc2-c2ccn3nc(NC(=O)C4CC4)cc3c2)C1 — inhibition (Mitogen-activated protein kinase 9, isoform alpha2 (MAPK9, Homo sapiens, UniProt P45984); kinase activity, inhibitor; 1 µM, together with: ATP 45 µM): -4%
C=CC(=O)N1CCC(C(=O)NCC(=O)N2CCN(c3nc(-c4cnc(N)nc4C(F)F)nc(N4CCOCC4)n3)CC2)CC1 — remaining binding (MAPK9; KINOMEscan; 1 µM): 89%
CCN(CC)c1ccc(C2=NNC(=O)CC2C)cc1[N+](=O)[O-] (stereo not drawn) — remaining activity (MAPK9; enzyme activity, inhibitor; 10 µM; reference: vehicle): 91%
O=C1NC(=O)/C(=C/c2ccc(-c3ccc(F)cc3O)o2)S1 — remaining activity (MAPK9; enzyme activity; 10 µM): 85%
